Experimental data from different studies.
Lines come from different studies, so protocols differ. ± marks the error that the study gave.

The Cmax of `CCCC[C@H](OC(C)=O)c1ccccc1C(=O)O` is reported as 16600 ± 2380 ng/mL (Sprague-Dawley rats, both sexes, whole blood; intravenous, 5 mg/kg single dose).
With `O=C(O)/C=C\c1cc2ccoc2cc1O[C@@H]1O[C@H](CO)[C@@H](O)[C@H](O)[C@H]1O` the Cmax was 229 ± 110 ng/mL (rat, plasma; oral, 500 mg/kg Eu + 217 mg/kg Pc extract, dosed as combined Eu and Pc extracts).
For `OC1(C(F)(F)F)CCN(c2nc(Nc3ccnc(C(F)(F)F)c3)nc(-c3cccc(C(F)(F)F)n3)n2)C1` (stereo not drawn), the Cmax was 217 ± 34.5 ng/mL (Sprague-Dawley rat, both sexes, plasma; oral gavage, 5 mg/kg).
For `CC1(C)C(NC(=O)C(=NOC2(C(=O)O)CCC2)c2csc(N)n2)C(=O)N1OS(=O)(=O)O` (stereo not drawn), the Cmax was 70500 ± 24300 ng/mL (Sprague-Dawley rat, plasma; intravenous, 10 mg/kg).
With `C=C(NC(=O)c1csc(-c2nc3c(cc2O)-c2nc(cs2)C(=O)NC(C(C)O)C(=O)NC(=C(C)OC)c2nc(cs2)C(=O)NC2c4nc(cs4)C(=O)NC(COC(=O)c4c5c6c(cccc6n4O)COC(=O)C(OC4CC(C)(O)C(N(C)C)C(C)O4)C2OC5)c2nc-3cs2)n1)C(N)=O` (stereo not drawn) the Cmax was 4150 ± 1090 ng/mL (Sprague-Dawley rat, both sexes, plasma; intravenous infusion, 6 mg/kg, multiple doses, day 1).
For `COc1ccc([C@@H]2CC(=O)c3c(O)cc(O[C@@H]4O[C@H](CO)[C@@H](O)[C@H](O)[C@H]4O[C@@H]4O[C@@H](C)[C@H](O)[C@@H](O)[C@H]4O)cc3O2)cc1O`, the Cmax was 5.01 ± 0.542 ng/mL (Sprague-Dawley rat, male, obese, plasma; intravenous, 4 mg/kg).
With `C/C(N)=N/C(=N\S(=O)(=O)c1ccc(C(F)(F)F)cc1)N1C[C@H](c2ccccc2)C(c2ccc(Cl)cc2)=N1` the Cmax was 321 ng/mL (Sprague-Dawley rat, male, plasma; oral, 3 mg/kg).
The Cmax of `CC[C@H](C)[C@H](NC(=O)[C@H](Cc1ccc(O)cc1)NC(=O)[C@@H](NC(=O)[C@H](CCCNC(=N)N)NC(=O)[C@@H](N)CC(=O)O)C(C)C)C(=O)N[C@@H](Cc1c[nH]cn1)C(=O)N1CCC[C@H]1C(=O)O` is reported as 26 ng/mL (LC-MS/MS; Sprague-Dawley rats, plasma; subcutaneous, 10 mg/kg/day, day 0).
`COCCN(C)CC(=O)NC(Cc1ccc(-c2ccccc2)cc1)B(O)O` (stereo not drawn) gave a Cmax of 4120 nM (male Sprague-Dawley rats, plasma; intravenous, 1 mg/kg, citrate ester).
`O=C(NS(=O)(=O)c1cccs1)c1cc2ccccc2n1Cc1ccc(Br)c2ccccc12` gave a Cmax of 3550 ng/mL (Sprague-Dawley rat, male, plasma; oral, 20 mg/kg).
The Cmax of `Cc1c(-c2ccc(N3CCc4cccc(C(=O)Nc5nc6ccccc6s5)c4C3)nc2C(=O)O)cnn1CC12CC3CC(CC(C3)C1)C2` is reported as 57200 ± 6500 ng/mL (anesthetized male Sprague-Dawley rats, plasma; intravenous infusion, 10 mg/kg, 30 min infusion).
For `O=C(Nc1ccc(OC(F)(F)F)cc1)NC1CCN(C(=O)C2CC2)CC1`, the Cmax was 326 nM (Sprague-Dawley rat, male, whole blood; oral, 0.1 mg/kg).

A few entries again:
With `O=C(O)/C=C\c1cc2ccoc2cc1O[C@@H]1O[C@H](CO)[C@@H](O)[C@H](O)[C@H]1O` the Cmax was 229 ± 110 ng/mL (rat, plasma; oral, 500 mg/kg Eu + 217 mg/kg Pc extract, dosed as combined Eu and Pc extracts).
